Published values pooled from the literature.
Protocols differ between the studies behind these lines. “And” joins repeats or separate records; there may be more than shown. ± gives the spread as reported.
folP: Dihydropteroate synthase (folP, Bacteria, UniProt P0AC13)
UniProt P0AC13, sequence (whole entry, looked up): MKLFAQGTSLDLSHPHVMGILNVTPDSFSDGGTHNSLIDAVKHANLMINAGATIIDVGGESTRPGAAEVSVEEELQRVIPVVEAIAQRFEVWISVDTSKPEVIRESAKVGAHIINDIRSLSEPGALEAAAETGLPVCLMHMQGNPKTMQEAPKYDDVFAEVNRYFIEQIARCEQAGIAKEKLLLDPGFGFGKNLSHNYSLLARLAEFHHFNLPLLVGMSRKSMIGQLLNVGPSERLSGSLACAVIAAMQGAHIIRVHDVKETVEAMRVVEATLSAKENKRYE
T1: RNA aptamer; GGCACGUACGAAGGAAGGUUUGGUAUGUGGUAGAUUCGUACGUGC
T2: RNA aptamer; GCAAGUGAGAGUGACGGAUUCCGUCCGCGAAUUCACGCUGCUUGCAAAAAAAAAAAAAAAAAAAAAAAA
UniProt Q8IVV7, sequence (whole entry, looked up): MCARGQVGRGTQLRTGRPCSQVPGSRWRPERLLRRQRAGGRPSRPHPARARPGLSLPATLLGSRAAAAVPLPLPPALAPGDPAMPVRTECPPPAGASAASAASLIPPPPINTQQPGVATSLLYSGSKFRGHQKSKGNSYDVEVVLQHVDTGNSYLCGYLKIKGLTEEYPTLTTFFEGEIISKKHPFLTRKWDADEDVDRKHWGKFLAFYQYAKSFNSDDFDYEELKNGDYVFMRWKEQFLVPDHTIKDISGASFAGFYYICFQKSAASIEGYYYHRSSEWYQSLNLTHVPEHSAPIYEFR
UniProt Q9UM73, sequence (whole entry, looked up): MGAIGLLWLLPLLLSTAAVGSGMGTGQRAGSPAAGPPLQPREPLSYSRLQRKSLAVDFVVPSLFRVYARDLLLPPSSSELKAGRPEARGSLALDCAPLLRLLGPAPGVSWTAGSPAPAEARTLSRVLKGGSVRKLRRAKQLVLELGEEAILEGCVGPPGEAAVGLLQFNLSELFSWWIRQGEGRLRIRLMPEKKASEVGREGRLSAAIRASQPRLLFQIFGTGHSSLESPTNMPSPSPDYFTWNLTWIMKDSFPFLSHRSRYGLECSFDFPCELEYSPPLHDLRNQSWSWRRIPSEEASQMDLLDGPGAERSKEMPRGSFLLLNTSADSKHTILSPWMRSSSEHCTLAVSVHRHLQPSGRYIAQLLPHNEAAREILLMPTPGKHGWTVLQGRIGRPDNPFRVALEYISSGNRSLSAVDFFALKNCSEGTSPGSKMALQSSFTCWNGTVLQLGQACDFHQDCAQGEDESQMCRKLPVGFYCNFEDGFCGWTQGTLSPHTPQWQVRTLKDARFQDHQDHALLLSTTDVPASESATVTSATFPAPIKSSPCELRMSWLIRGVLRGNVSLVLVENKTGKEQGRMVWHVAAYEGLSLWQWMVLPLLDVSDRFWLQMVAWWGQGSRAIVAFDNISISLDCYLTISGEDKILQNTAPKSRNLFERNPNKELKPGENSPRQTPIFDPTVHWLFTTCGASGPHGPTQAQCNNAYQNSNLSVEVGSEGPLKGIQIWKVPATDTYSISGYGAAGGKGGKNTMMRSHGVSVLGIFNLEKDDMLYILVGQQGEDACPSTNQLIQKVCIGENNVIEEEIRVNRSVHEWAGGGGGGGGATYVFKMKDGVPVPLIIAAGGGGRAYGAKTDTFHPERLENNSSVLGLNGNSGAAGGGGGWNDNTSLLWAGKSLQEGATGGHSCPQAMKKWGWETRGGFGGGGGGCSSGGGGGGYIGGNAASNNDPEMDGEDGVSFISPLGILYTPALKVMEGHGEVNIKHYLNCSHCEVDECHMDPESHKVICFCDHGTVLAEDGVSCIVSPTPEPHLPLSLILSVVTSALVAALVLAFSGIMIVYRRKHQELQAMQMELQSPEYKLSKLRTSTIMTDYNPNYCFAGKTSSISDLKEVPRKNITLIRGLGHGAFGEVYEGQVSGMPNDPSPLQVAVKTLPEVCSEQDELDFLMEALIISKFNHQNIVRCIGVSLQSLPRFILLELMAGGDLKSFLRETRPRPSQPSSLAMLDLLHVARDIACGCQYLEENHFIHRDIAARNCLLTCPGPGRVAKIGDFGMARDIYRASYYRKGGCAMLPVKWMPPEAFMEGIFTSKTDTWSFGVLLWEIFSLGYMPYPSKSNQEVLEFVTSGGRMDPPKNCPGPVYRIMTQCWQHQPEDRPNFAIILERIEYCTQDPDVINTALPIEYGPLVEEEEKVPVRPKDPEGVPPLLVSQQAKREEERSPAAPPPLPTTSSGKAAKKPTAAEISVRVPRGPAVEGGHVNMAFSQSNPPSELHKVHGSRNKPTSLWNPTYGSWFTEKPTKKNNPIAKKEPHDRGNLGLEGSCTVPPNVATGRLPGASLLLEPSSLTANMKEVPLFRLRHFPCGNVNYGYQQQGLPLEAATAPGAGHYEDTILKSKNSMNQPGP
UniProt P22314, sequence (whole entry, looked up): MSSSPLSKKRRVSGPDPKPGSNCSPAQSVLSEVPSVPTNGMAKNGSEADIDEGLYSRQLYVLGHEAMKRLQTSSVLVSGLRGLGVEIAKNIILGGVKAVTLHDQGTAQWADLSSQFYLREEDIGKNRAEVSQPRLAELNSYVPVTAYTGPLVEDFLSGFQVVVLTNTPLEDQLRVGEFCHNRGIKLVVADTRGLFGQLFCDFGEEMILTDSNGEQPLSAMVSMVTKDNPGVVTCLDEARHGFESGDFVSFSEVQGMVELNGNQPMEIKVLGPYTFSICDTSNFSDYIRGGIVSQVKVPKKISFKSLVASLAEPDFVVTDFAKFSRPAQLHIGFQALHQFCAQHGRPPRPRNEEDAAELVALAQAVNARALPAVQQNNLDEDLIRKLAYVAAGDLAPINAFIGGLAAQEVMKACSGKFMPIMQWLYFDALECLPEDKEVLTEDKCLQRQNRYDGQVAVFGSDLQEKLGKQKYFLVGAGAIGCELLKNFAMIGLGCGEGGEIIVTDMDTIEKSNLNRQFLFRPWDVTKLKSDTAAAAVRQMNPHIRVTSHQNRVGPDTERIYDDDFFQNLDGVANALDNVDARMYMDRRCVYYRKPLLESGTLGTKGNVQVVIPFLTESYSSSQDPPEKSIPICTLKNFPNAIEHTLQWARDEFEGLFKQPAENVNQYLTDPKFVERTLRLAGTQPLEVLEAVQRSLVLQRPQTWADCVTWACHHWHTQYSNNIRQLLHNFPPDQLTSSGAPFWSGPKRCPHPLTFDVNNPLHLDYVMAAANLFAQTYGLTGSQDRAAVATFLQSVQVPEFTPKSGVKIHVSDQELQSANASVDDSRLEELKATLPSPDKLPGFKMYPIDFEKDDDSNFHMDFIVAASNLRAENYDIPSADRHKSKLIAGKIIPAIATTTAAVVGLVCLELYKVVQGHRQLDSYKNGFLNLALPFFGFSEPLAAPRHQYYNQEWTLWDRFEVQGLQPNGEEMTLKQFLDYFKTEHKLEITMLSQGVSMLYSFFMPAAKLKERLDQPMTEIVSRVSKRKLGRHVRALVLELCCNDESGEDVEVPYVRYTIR
UniProt Q13148, sequence (whole entry, looked up): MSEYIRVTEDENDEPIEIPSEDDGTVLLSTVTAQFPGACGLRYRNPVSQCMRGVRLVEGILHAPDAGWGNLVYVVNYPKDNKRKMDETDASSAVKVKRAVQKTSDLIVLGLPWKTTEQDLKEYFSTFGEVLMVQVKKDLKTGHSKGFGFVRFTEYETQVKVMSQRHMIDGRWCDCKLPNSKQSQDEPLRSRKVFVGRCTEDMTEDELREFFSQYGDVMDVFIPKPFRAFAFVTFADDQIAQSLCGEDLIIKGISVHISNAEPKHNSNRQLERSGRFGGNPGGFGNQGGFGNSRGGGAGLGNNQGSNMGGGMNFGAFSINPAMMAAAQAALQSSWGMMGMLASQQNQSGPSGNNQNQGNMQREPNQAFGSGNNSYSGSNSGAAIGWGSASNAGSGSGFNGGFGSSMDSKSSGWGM
UniProt O94900, sequence (whole entry, looked up): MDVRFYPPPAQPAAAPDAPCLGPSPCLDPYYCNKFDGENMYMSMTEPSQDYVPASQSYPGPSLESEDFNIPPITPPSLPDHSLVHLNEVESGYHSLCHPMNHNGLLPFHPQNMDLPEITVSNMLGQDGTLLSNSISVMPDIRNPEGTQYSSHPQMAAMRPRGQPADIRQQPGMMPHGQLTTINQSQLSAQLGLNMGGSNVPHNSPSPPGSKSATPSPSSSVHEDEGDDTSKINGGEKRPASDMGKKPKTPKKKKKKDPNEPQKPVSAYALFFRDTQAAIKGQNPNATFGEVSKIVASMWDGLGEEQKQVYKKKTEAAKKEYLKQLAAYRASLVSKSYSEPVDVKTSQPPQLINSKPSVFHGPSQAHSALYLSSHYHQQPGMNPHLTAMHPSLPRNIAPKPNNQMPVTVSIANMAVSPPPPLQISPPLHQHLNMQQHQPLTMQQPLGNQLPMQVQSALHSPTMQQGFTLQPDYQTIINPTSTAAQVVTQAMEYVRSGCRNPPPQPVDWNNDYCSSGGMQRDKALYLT
UniProt Q9BY41, sequence (whole entry, looked up): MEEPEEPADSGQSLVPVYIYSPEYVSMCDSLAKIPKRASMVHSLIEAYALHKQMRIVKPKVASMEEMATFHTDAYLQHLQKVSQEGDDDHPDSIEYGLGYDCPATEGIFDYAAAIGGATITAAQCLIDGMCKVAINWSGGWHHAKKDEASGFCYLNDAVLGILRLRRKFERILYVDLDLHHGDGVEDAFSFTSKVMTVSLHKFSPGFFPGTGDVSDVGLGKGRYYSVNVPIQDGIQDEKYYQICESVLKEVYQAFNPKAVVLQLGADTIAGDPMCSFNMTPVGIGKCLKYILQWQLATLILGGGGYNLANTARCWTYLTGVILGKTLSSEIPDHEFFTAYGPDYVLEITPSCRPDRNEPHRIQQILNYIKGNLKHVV
UniProt Q9HB90, sequence (whole entry, looked up): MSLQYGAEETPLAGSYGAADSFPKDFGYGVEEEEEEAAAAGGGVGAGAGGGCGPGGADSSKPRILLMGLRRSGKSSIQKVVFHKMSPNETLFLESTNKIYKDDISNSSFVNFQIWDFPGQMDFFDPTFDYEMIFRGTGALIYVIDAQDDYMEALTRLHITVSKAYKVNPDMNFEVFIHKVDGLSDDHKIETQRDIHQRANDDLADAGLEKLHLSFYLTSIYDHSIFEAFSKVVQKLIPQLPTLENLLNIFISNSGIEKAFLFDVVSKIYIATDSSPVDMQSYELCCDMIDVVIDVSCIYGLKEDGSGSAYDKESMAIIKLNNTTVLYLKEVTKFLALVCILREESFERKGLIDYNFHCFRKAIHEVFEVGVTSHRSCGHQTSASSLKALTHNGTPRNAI

Structure (SMILES) | target | test | system | conditions | how to read | quantity | result
CCC1(CC)C(=O)N(c2cccc(CCC(=O)O)c2)C1=O.O=C(O)C(F)(F)F | Dipeptidyl peptidase 9 (DPP9, Homo sapiens, UniProt Q86TI2) | enzyme activity, inhibitor |  | 5 µM |  | activity vs control | 17%
C[C@](O)(c1cccc(F)c1)c1cn(CSc2ccccc2)nn1 | Protein Mdm4 (MDM4, Homo sapiens, UniProt O15151) | thermal stability, DSF |  | 30 µM |  | ΔTm | 1.38 °C
Cn1nnnc1SCc1nn(C)c2nc(N)[nH]c(=O)c2c1=O | folP | CETSA HiBiT | Escherichia coli, whole cells |  |  | melting temperature | 63.2 °C
Cc1cc(=O)oc2cc(NC(=O)CCCCCCCC(=O)NO)ccc12 | Histone deacetylase 8 (HDAC8, Homo sapiens, UniProt Q9BY41) | ITC | Hepes buffer | concentration not given, pH 7.5 |  | binding stoichiometry | 0.8
COc1ccccc1-c1ccncc1C(=O)Nc1nnc(OCc2ccc(Cl)cc2)s1 | RECQL5 (Homo sapiens, UniProt O94762) | ATPase activity, ADP-Glo |  | 0.12 µM, 1 h |  | remaining activity | 108%
CC(C)=CC1OC(C)(C)C2C=C3C(=O)C(Cl)=CC(O)C3C3C(O)C4OC4C(=O)C132 (stereo not shown) | Receptor-type tyrosine-protein kinase FLT3 (FLT3, Homo sapiens, UniProt P36888, D835V/ITD) | cell-free assay, competition with immobilised ligand |  | 10 µM |  | remaining binding | 6.5%
CCCCCC(O)/C=C/C=O (stereo not shown) | MMS19 nucleotide excision repair protein homolog (MMS19, Homo sapiens, UniProt Q96T76) | competitive isoTOP-ABPP | Ramos soluble proteome | 100 µM, 60 min, added: iodoacetamide probe | reference: DMSO over compound-treated, higher = stronger cysteine blockade | isoTOP-ABPP competition ratio | 1.2
CN(C(=O)CCl)[C@@H](Cc1ccccc1)C(=O)N1CCCC[C@H]1C(=O)N[C@@H](Cc1c[nH]c2ccccc12)C(=O)N[C@@H](CCCNC(N)=O)C(N)=O | Peptidyl-prolyl cis-trans isomerase NIMA-interacting 1 (PIN1, Homo sapiens, UniProt Q13526) | thermal stability, DSF |  |  |  | ΔTm | -6.4 °C
C[C@@H](Nc1nc(N[C@H](C)C(F)(F)F)nc(-c2cccc(Cl)n2)n1)C(F)(F)F | Isocitrate dehydrogenase [NADP], mitochondrial, heterodimer with wild-type (IDH2, Homo sapiens, UniProt P48735, R172K) | reverse reaction |  | 1 h preincubation, mutant |  | maximum inhibition | 98.8 ± 1.2%
CC(C)[C@@H]1NC(=O)[C@H](Cc2ccccc2)NC(=O)CSC[C@@H](C(N)=O)NC(=O)[C@H](CCC(=O)O)NC(=O)[C@H](CO)NC(=O)[C@H](Cc2c[nH]c3cccc(Cl)c23)NC(=O)[C@H](C2CCCCC2)NC(=O)[C@H](C(C)C)NC(=O)[C@H](Cc2ccc(O)cc2)NC(=O)[C@H](CC(=O)O)NC(=O)[C@H](Cc2c[nH]c3ccccc23)NC(=O)[C@H](Cc2ccc(N)nc2)NC(=O)[C@H](Cc2c[nH]c3ccc(Cl)cc23)NC(=O)[C@H](CCC(=O)O)NC1=O | Interleukin-1 receptor-like 2 (IL1RL2, Homo sapiens, UniProt Q9HB29) | reporter gene (SEAP), inhibitor, HEK-Blue IL-36R reporter | HEK-Blue IL-36R cells | 100 µM, 6 h, added: IL-36β 100 ng/mL |  | remaining activity | 36.7%
Cn1nc(CNc2nnn[nH]2)c(=O)c2c(=O)[nH]c(N)nc21 | folP | CETSA HiBiT | Escherichia coli, cell lysate | concentration not given | reference: DMSO | melting temperature shift | 15.4 °C
N#Cc1c(N)nc2c(c1-c1ccc(CO)o1)Cc1cc(O)ccc1-2 | Thymocyte selection-associated high mobility group box protein TOX (Homo sapiens, UniProt O94900) | IP-MS, measured: histone H1.0 | MOLT-4 | 10 µM | reference: DMSO | fold change | -4.96
COCCCCCNc1nc(NCCCCCCN(C)C)c2cc(NC(=O)/C=C/CN(C)C)ccc2n1 | Histone-lysine N-methyltransferase SETDB1 (SETDB1, Homo sapiens, UniProt Q15047) | cell-free assay, inhibitor, FP |  | 0.5 µM |  | remaining signal | 79%
CCCCCCCCCCCCCCCC(=O)OCC(CSC[C@H](N)C(=O)N[C@@H](CO)C(=O)N[C@@H](CCCCN)C(=O)N[C@@H](CCCCN)C(=O)N[C@@H](CCCCN)C(=O)N[C@@H](CCCCN)C(=O)NCCCCCC(=O)N[C@@H](CCCCN)C(=O)N[C@@H](CC(C)C)C(=O)N[C@H](C(=O)N[C@@H](Cc1ccccc1)C(=O)N[C@@H](Cc1ccccc1)C(=O)N[C@@H](Cc1ccc2ccccc2c1)C(=O)O)C(C)C)OC(=O)CCCCCCCCCCCCCCC (stereo partly shown) | Amyloid-beta precursor protein, fibrillar amyloid-beta (APP, Homo sapiens, UniProt P05067) | TEM |  | 2.0 eq, 3 h, fibril 6, added: APP 20 µM |  | fibril diameter | 54.7 nm
Cc1ccc2c(c1)N(C)C=CC2=Cc1sc2ccccc2[n+]1CC(=O)NCCOCCOCCOCCNC(=O)CCCC[C@@H]1SC[C@@H]2NC(=O)N[C@@H]21 | T1, RNA aptamer | fluorescence titration |  |  |  | Kd | 13.5 nM
COC(=O)[C@@]1(Cc2ccccc2)C=C(C(=O)OC(C)(C)C)C(=O)CC1 | Mitogen-activated protein kinase 14 (MAPK14, Homo sapiens, UniProt Q16539, C162A) | peptide binding, fluorescence polarization |  | 62.5 µM |  | fraction bound | 0.477
CCCCCC=CC=C1C(=O)C=CC1CC=CCCCC(=O)O (stereo not shown) | Ras-related GTP-binding protein C (RRAGC, Homo sapiens, UniProt Q9HB90) | competitive isoTOP-ABPP, measured: RRAGC cysteine peptide | Ramos soluble proteome | 100 µM, added: iodoacetamide probe | reference: DMSO over compound-treated, higher = stronger cysteine blockade | isoTOP-ABPP competition ratio | 4.2
CC(=O)N[C@@H](CO)C(=O)N[C@@H](C)C(=O)N[C@@H](CCCCN)C(=O)N[C@@H](C)C(=O)N[C@@H](C)C(=O)N[C@@H](CC(=O)O)C(=O)N[C@@H](CC(=O)O)C(=O)N1CCC[C@H]1C(=O)N[C@@H](CCC(=O)O)C(=O)N[C@@H](CC(N)=O)C(=O)NCC(=O)N[C@@H](CCC(=O)O)C(=O)N[C@@H](CCCNC(=N)N)C(=O)N[C@@H](CCC(=O)O)C(=O)N[C@@H](CO)C(=O)N[C@@H](Cc1c[nH]cn1)C(=O)N[C@H](C(=O)N1CCC[C@H]1C(=O)N[C@H](C(=O)N[C@@H](CO)C(N)=O)C(C)C)[C@@H](C)O | Kelch-like ECH-associated protein 1, Kelch domain (KEAP1, Homo sapiens, UniProt Q14145) | binding, ITC |  | pH 7, 298.15 K |  | TΔS | -7.21 kcal/mol
COC(=O)CC(C)c1nn(C)c2nc(N)[nH]c(=O)c2c1=O (stereo not shown) | folP | CETSA HiBiT | Escherichia coli, whole cells |  |  | melting temperature | 58.1 °C
N#CN1CC[C@H](C(=O)Nc2nc3c(s2)CN(C(=O)Cn2cc(CNC(=O)CCCC[C@@H]4SC[C@@H]5NC(=O)N[C@@H]54)nn2)CC3)C1 | Ubiquitin-like modifier-activating enzyme 1 (UBA1, Homo sapiens, UniProt P22314) | probe binding, affinity probe, neutravidin pull-down LC-MS/MS | HEK293T, cell lysate | 5 µM, 1 h, single replicate, unit not given | higher = more pulled down | iBAQ abundance | 1.35e+06 and 4.36e+06 and 4.06e+06
CC[C@H](C)[C@H](NC(=O)[C@H](CCC(=O)O)NC(=O)[C@H](CCC(=O)O)NC(=O)[C@H](Cc1ccccc1)NC(=O)[C@H](CCCCN)NC(=O)[C@@H]1CCCN1C(=O)[C@H](Cc1c[nH]cn1)NC(=O)[C@H](CCCCN)NC(=O)[C@H](CO)NC(=O)[C@H](CC(C)C)NC(=O)[C@H](Cc1c[nH]cn1)NC(C)=O)C(=O)N[C@@H](CC(C)C)C(=O)N[C@H](C(=O)N[C@@H](CCCNC(=N)N)C(=O)N[C@@H](CC(C)C)C(=O)N[C@@H](CCCNC(=N)N)C(=O)N[C@@H](CC(C)C)C(=O)N[C@@H](CCC(N)=O)C(N)=O)[C@@H](C)O | Calmodulin-1, C-lobe (CALM1, Homo sapiens, UniProt P0DP23) | ITC |  | concentration not given, C-lobe fragment, added: CaCl2 1 mM |  | binding enthalpy | -4.6 ± 0.1 kJ/mol
CCc1occc(=O)c1[O-].[Cl-].[W+4].c1cc[cH-]c1.c1cc[cH-]c1 | Albumin (ALB, Homo sapiens, UniProt P02768) | binding, fluorescence quenching |  | 310 K |  | Gibbs free energy change | -25 kJ/mol
N#Cc1ccc(NC(=O)Nc2ccccc2O)cc1 | SRSF protein kinase 3 (SRPK3, Homo sapiens, UniProt Q9UPE1) | kinase activity, Z'-LYTE |  |  |  | Hill slope | 1.09
Cn1nc(C(=O)O)c(=O)c2c(=O)[nH]c(N)nc21 | folP | CETSA HiBiT | Escherichia coli, whole cells | concentration not given | reference: DMSO | melting temperature shift | 2.05 °C
Fc1ccc(Nc2nc(NCc3ncccn3)nc(Nc3ccccc3)n2)cc1 | T2, RNA aptamer | SPR |  | 25 °C, read off a plot |  | Kd | 30 nM
COc1cc(N2CCN(C(=O)C3CCCN3)CC2)ccc1Nc1ncc(Cl)c(Nc2ccccc2P(C)(C)=O)n1 (stereo not shown) | GID4/ALK (Homo sapiens, UniProt Q8IVV7+Q9UM73) | ternary complex formation | HEK293T | 100 nM, 6 h | reference: normalised ratio | NanoBRET ratio | 1.8 and 1.77 and 1.56
Cn1nc(CCC#N)c(=O)c2c(=O)[nH]c(N)nc21 | folP | CETSA HiBiT | Escherichia coli, cell lysate | concentration not given | reference: DMSO | melting temperature shift | 9.39 °C
O=C1c2sc(-c3ccc(N4CCC(CO)CC4)nc3F)nc2CCN1c1cccnc1 | TAR DNA-binding protein 43, aggregated (TARDBP, Homo sapiens, UniProt Q13148) | radioligand binding | human, FTLD-TDP type B extract | added: radioligand 72.89 nM |  | specific binding | 9.28 nM and 7.44 nM
